{"data": "Measurements from different studies", "note": "Lines come from different studies, so protocols differ. ± gives the spread as reported."}
{"SMILES": "CC(C)(CCCC/C=C/CCCCCC(C)(C)C(=O)O)C(=O)O", "system": "beagle dog, both sexes", "setting": "oral, dose not given, 10 h", "measurement": "plasma concentration", "value": "10600 ng/mL"}
{"SMILES": "Nc1nonc1-c1nnc2c(n1)-c1ccccc1C2=O", "system": "Balb/c mouse", "setting": "intraperitoneal, 30 mg/kg, 3 weeks, repeated injections", "measurement": "mortality", "value": "66.7%"}
{"SMILES": "C=Cc1c(C)c2cc3nc(c(CC(=O)[O-])c4[n-]c(cc5nc(cc1[n-]2)C(C)=C5CC)c(C)c4C(=O)[O-])C(CCC(=O)[O-])C3C.[Cu+2].[Na+].[Na+].[Na+] (centres unmarked)", "system": "Wistar rat, female", "setting": "oral, 1000 mg/kg daily, 28 days", "measurement": "serum cholesterol", "value": "39.2 ± 16.6 mg/dL"}
{"SMILES": "CSCC[C@H](N)C(=O)N[C@@H](C)C(=O)N[C@@H](Cc1c[nH]c2ccccc12)C(=O)N[C@@H](Cc1c[nH]cn1)C(=O)N[C@@H](CC(=O)O)C(=O)N[C@@H](CC(=O)O)C(=O)N[C@@H](CCC(=O)O)C(=O)N[C@@H](CCC(=O)O)C(=O)N[C@@H](Cc1ccccc1)C(=O)N[C@@H](C)C(=O)N[C@@H](CCCNC(=N)N)C(=O)N[C@@H](CCCNC(=N)N)C(=O)N[C@@H](CCCNC(=N)N)C(=O)N[C@@H](CCCNC(=N)N)C(=O)NCCCCCC(=O)NCCCCC(NC(=O)CCCCCNC(=O)[C@H](CCCNC(=N)N)NC(=O)[C@H](CCCNC(=N)N)NC(=O)[C@H](CCCNC(=N)N)NC(=O)[C@H](CCCNC(=N)N)NC(=O)[C@H](C)NC(=O)[C@H](Cc1ccccc1)NC(=O)[C@H](CCC(=O)O)NC(=O)[C@H](CCC(=O)O)NC(=O)[C@H](CC(=O)O)NC(=O)[C@H](CC(=O)O)NC(=O)[C@H](Cc1c[nH]cn1)NC(=O)[C@H](Cc1c[nH]c2ccccc12)NC(=O)[C@H](C)NC(=O)[C@@H](N)CCSC)C(=O)NCCCCC(NC(=O)C(CCCCNC(=O)CCCCCNC(=O)[C@H](CCCNC(=N)N)NC(=O)[C@H](CCCNC(=N)N)NC(=O)[C@H](CCCNC(=N)N)NC(=O)[C@H](CCCNC(=N)N)NC(=O)[C@H](C)NC(=O)[C@H](Cc1ccccc1)NC(=O)[C@H](CCC(=O)O)NC(=O)[C@H](CCC(=O)O)NC(=O)[C@H](CC(=O)O)NC(=O)[C@H](CC(=O)O)NC(=O)[C@H](Cc1c[nH]cn1)NC(=O)[C@H](Cc1c[nH]c2ccccc12)NC(=O)[C@H](C)NC(=O)[C@@H](N)CCSC)NC(=O)CCCCCNC(=O)[C@H](CCCNC(=N)N)NC(=O)[C@H](CCCNC(=N)N)NC(=O)[C@H](CCCNC(=N)N)NC(=O)[C@H](CCCNC(=N)N)NC(=O)[C@H](C)NC(=O)[C@H](Cc1ccccc1)NC(=O)[C@H](CCC(=O)O)NC(=O)[C@H](CCC(=O)O)NC(=O)[C@H](CC(=O)O)NC(=O)[C@H](CC(=O)O)NC(=O)[C@H](Cc1c[nH]cn1)NC(=O)[C@H](Cc1c[nH]c2ccccc12)NC(=O)[C@H](C)NC(=O)[C@@H](N)CCSC)C(N)=O (some centres unmarked)", "system": "C57BL/6 mouse female, lungs", "setting": "dose not given, 3 h", "how to read": "relative to: total", "measurement": "mean tissue distribution", "value": "2.14%"}
{"SMILES": "CC(C)C[C@@H](NC(=O)[C@@H](CCCNC(=N)N)NC(=O)[C@@H](Cc1c[nH]cn1)NC(=O)[C@@H](Cc1c[nH]c2ccccc12)NC(=O)[C@@H](Cc1c[nH]cn1)NC(=O)[C@@H](Cc1ccccc1)NC(=O)[C@H](NC(=O)[C@@H](Cc1ccc(O)cc1)NC(=O)CNC(=O)CNC(=O)CCOCCOCCOCCNC(=O)CN1CCN(CC(=O)O)CCN(CC(=O)O)CC1)[C@H](C)O)C(=O)N[C@H](CC(N)=O)C(=O)N1CCC[C@@H]1C(=O)O [gallium-68 labelled]", "assay": "OLINDA/EXM", "system": "adult male human, ULI wall", "setting": "extrapolated from C57BL/6 mice", "measurement": "organ absorbed dose", "value": "0.011 ± 0.000361 mSv/MBq"}
{"SMILES": "O=C1NC2(CC2)COc2ncc(F)cc2[C@H]2COCCN2c2ccn3ncc1c3n2", "system": "Sprague-Dawley rat, male, liver", "setting": "oral, 2.5 mg/kg/day, 4 weeks, end of treatment", "measurement": "organ-to-brain weight ratio", "value": "637 ± 68.8%"}
{"SMILES": "CN1CCCCC1C(=O)NC(Cc1ccc(-c2ccccc2)cc1)B(O)O (centres unmarked)", "system": "Caco-2", "measurement": "Papp A→B", "value": "8.4 ×10⁻⁶ cm/s"}
{"SMILES": "CCc1nn(C)c2nc(-c3ccc(C(=O)O)cc3)nc(NCc3ccccc3)c12", "system": "male CD-1 mouse, plasma", "setting": "intravenous, 1 mg/kg, 15 min", "measurement": "concentration", "value": "7.83 ng/mL"}
{"SMILES": "C[C@H](O)[C@@H](NC(=O)[C@H]1CCCN1C(=O)[C@@H](CCCCN)NC(=O)[C@@H](CO)NC(=O)[C@@H](Cc1ccc(O)cc1)NC(=O)[C@@H](CC(N)=O)NC(=O)CCOCCOCCOCCNC(=O)CN1CCN(CC(=O)O)CCN(CC(=O)O)CCN(CC(=O)O)CC1)C(=O)N[C@H](CC(=O)O)C(=O)N[C@H](CCCNC(=N)N)C(=O)N[C@H](CCC(N)=O)C(=O)N[C@H](Cc1ccc(O)cc1)C(=O)N[C@H](Cc1c[nH]cn1)C(=O)N[C@H](Cc1ccccc1)C(N)=O [gallium-68 labelled]", "assay": "ex vivo gamma counting", "system": "BALB/c nude mouse, U-87 MG xenograft, intestine", "setting": "intravenous, 1.85 MBq, 30 min", "measurement": "tissue uptake", "value": "0.47 ± 0.35 %ID/g"}
{"SMILES": "[2H]C([2H])([18F])[C@]([2H])(N)C(=O)O", "assay": "dynamic PET", "system": "U-87 MG tumour-bearing mice, blood", "measurement": "blood half-life", "value": "0.59 min"}
{"SMILES": "CSCC[C@H](NC(=O)CNC(=O)[C@H](CCCCN)NC(=O)[C@H](CC(C)C)NC(=O)[C@@H]1CCCN1C(=O)[C@H](CO)NC(=O)[C@H](Cc1c[nH]cn1)NC(=O)[C@H](Cc1c[nH]c2ccccc12)NC(=O)[C@H](CCCNC(=N)N)NC(=O)[C@H](CC(C)C)NC(=O)[C@H](CCCNC(=N)N)NC(=O)[C@H](Cc1c[nH]c2ccccc12)NC(=O)[C@H](CS)NC(=O)CCCCCNC(=O)CN1CCN(CC(=O)O)CCN(CC(=O)O)CCN(CC(=O)O)CC1)C(=O)O [copper-64 labelled]", "system": "male C57BL/6J mice, B16-F10 tumour, intestinal lymph node", "setting": "intravenous, 1.85 MBq, 30 h", "measurement": "tissue uptake", "value": "0.87 %ID/g"}
{"SMILES": "CC(C)[C@@H]1NC(=O)CNC(=O)[C@H](CC(N)=O)NC(=O)[C@H](CCCNC(=N)N)NC(=O)[C@H](Cc2ccc(O)cc2)NC(=O)[C@H](C(C)C)NC(=O)[C@@H](NC(=O)[C@@H](NC(=O)[C@H](CC(N)=O)NC(=O)[C@H](Cc2c[nH]c3ccccc23)NC(=O)[C@H](C)NC(=O)[C@H](Cc2ccccc2)NC(=O)CNC(=O)[C@H](CCCCN)NC(=O)[C@H](Cc2ccccc2)NC(=O)[C@H](Cc2ccccc2)NC(=O)[C@H](CCCCN)NC(=O)OCC2c3ccccc3-c3ccccc32)C(C)C)CSSC[C@@H](C(=O)N[C@@H](Cc2c[nH]cn2)C(=O)N[C@@H](CCCNC(=N)N)C(=O)N[C@@H](CCCNC(=N)N)C(=O)N[C@@H](C)C(=O)N[C@@H](CC(N)=O)C(N)=O)NC(=O)[C@H](C(C)C)NC(=O)[C@H](CCCNC(=N)N)NC1=O", "system": "ICR mouse, blood", "setting": "intramammary, 5 mg/kg, day 5, 3 d dosing", "measurement": "AST", "value": "26 ± 2.08 IU/L"}
{"SMILES": "CC[C@H](C)[C@H](NC(C)=O)C(=O)N[C@@H](Cc1ccc(O)cc1)C(=O)N[C@@H](CC(C)C)C(=O)N[C@@H](CS)C(=O)NCC(=O)N[C@@H](C)C(=O)N[C@H](C(=O)N[C@@H](CO)C(=O)N[C@@H](CC(C)C)C(=O)N[C@@H](Cc1c[nH]cn1)C(=O)N1CCC[C@H]1C(=O)N[C@@H](CCCCN)C(=O)N[C@@H](C)C(=O)N[C@@H](CCCCN)C(=O)N[C@H](C(=O)N[C@@H](CCC(=O)O)C(=O)N[C@@H](CCC(=O)O)C(=O)N[C@@H](CO)C(=O)N1CCC[C@H]1C(=O)NCC(=O)N[C@@H](C)C(N)=O)[C@@H](C)CC)[C@@H](C)CC", "assay": "Cy5.5 fluorescence", "system": "mouse (C57BL/6), serum", "setting": "intravenous, 10 mg/kg, 15 min to 24 h", "measurement": "elimination half-life", "value": "48 min"}
{"SMILES": "C#Cc1c(F)ccc2cc(O)cc(-c3ncc4c(N5CC6CCC(C5)N6C(=O)OC(C)OC(=O)CCCCC)nc(OC[C@@]56CCCN5C[C@H](F)C6)nc4c3F)c12 (some centres unmarked)", "assay": "item: prodrug", "system": "mouse whole blood", "setting": "1 µM", "measurement": "t1/2", "value": "5.92 min"}
{"note": "Excerpt of the above:"}
{"SMILES": "C#Cc1c(F)ccc2cc(O)cc(-c3ncc4c(N5CC6CCC(C5)N6C(=O)OC(C)OC(=O)CCCCC)nc(OC[C@@]56CCCN5C[C@H](F)C6)nc4c3F)c12 (some centres unmarked)", "assay": "item: prodrug", "system": "mouse whole blood", "setting": "1 µM", "measurement": "t1/2", "value": "5.92 min"}
{"SMILES": "C[C@H](O)[C@@H](NC(=O)[C@H]1CCCN1C(=O)[C@@H](CCCCN)NC(=O)[C@@H](CO)NC(=O)[C@@H](Cc1ccc(O)cc1)NC(=O)[C@@H](CC(N)=O)NC(=O)CCOCCOCCOCCNC(=O)CN1CCN(CC(=O)O)CCN(CC(=O)O)CCN(CC(=O)O)CC1)C(=O)N[C@H](CC(=O)O)C(=O)N[C@H](CCCNC(=N)N)C(=O)N[C@H](CCC(N)=O)C(=O)N[C@H](Cc1ccc(O)cc1)C(=O)N[C@H](Cc1c[nH]cn1)C(=O)N[C@H](Cc1ccccc1)C(N)=O [gallium-68 labelled]", "assay": "ex vivo gamma counting", "system": "BALB/c nude mouse, U-87 MG xenograft, intestine", "setting": "intravenous, 1.85 MBq, 30 min", "measurement": "tissue uptake", "value": "0.47 ± 0.35 %ID/g"}
